# Experimental data pooled from the literature.
# Each numbered part is a random draw from the data of one study; scales do not carry over between parts. Changes are numbered by the printed parent chain.

# Set 1 — method: RNA Bind-n-Seq; form: RNA; matrix: in vitro; tested at: 365 nM; reference: no-protein control; direction: higher = stronger binding
# Target: RNA binding protein fox-1 homolog 2, RRM domain, GST-SBP tag (RBFOX2, Homo sapiens, UniProt O43251-10, residues 100-194)
# Setting: natural RNA segment, single round, ends assumed
# Shared flanks, not repeated: GGGAGUUCUACAGUCCGACGAUC … UGGAAUUCUCGGGUGCCAA
# Target sequence (chain): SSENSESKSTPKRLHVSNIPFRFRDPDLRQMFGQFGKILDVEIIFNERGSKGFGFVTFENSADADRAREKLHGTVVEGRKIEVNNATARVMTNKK
Strand,RBNS enrichment (R)
UCUGUGGACAUAAUUCUGACCGAAACCCAUGAAGUUACUUCAGUAUAAGAAGAACGUUACACGGAAAUCACCAAAUAUUUUGCAACUUUAUUUCUUCUGACAUGGAGUGA,0.373
GCAGUCAAUAUAGGAUCUCAGGCCAGGCCCGCUUUUCUAGAAUGUGUUUAAUUUUGAGUUUGCUUUAUUAGAUAUGUUUUUUAAGAGCUCUGUAUAUUUGAACUGCUCCU,0.437
GGUCUUUGCCAUCAAGGGUAUUUGGGUGACAUUUCAAAAUUUGUCCUCAUUAAAUGGAUGGGUGGGCCUUUUUAGUGCUUUGGAGCCUUGGCAGAUGUCAGGGAGGAAUA,1.31
UUGCAGCCCACGGUGCACAUCUGCGCACACCCUCACUGAGGACUGAGUGCUGUUGGUACACGGAGCCCCCUCCUCCAUACCCAUUGCUGCACCACCACUGUGGAUUGCAC,0.357
UUGGGAGGCCAAGGUAGGUGGAUACCUGAGGUCAGGAGUUCAAGACCAGCCUGGCCAACAUGGUGAAACCCCGUCUCUACUAAAAAUACAAAAAUUAGCUGGGCGUGGUG,0.278
AAAUGGAUUUAUAGAAUAUUUGUAAAUCUAUUUUUAGUGUUUGUUCGUUUUUUUAACUGUUCAUUCCUUUGUGCAGAGUGUAUAUCUCUGCCUGGGCAAGAGUGUGGAGG,0.532
AAGCCUUGUGGCUGUGCUGUCAUGCCUAGGAUAGCAUUCAACAUAACUUUAACAAAAUUAAACAUUCAAAAAGGCUUAGACUACUCCCAAUCAUUAAAGUAGGACCACAC,0.68
UGAUGUAUUAAGAUUGAUAAUAUUGCUGAUUUAAAUUUUAUUUAUGCACAUACUUAAAGGACAGAAAUGUCUGGUAAAGUAAUUGUUAAAUAAUGAUAUGUAGCUUUUUA,0.379
CUAGCUUCCUGUGGGUCAGGAGUGCAGAGCCACAGCCCACCCUGAACUGUCUGUGCCAGUGAGCGCCAAGGAGAAGGAAAACCUGCCUUAGCCCGAGGGUAGAAGUUGAU,0.503
AACCUGGCCGUCUACACAGCCCUUCUGCAACCUCACGACCGGAUCAUGGGGCUGGACCUGCCCGAUGGGGGCCAGCUCACCCACGGCUACAUGUCUGACGUCAAGCGGAU,0.687
AUUGGGCACACACAACUCCUGGUCAUGUCCCAGUUCAGCACCGAUCGCUAAGGCCGAUCCUGUAGAAUGCGGCUUUCAAGAGGUCCUAACUGAUCCUUUCUUCCACUUUG,0.27
CCCAGCGCAGCACUAAGCCUUAAGCCACCCAAGGGCUGACACACCAUGCAGAGCUACGAAAUCUGUGCUGAGAAAAUGCCAUCUGGAAAGAUUUUUAACCCAUUCAUUCU,0.557

# Set 2 — method: universal PBM; form: double-stranded DNA, one strand shown; matrix: in vitro; tested at: not given; direction: higher = stronger binding
# Target: Sal-like protein 4, full length isoform B (SALL4, Homo sapiens, UniProt Q9UJQ4-2, residues 1-616)
# Setting: 8-mer, flanks averaged, mean of replicates
# Target sequence (chain): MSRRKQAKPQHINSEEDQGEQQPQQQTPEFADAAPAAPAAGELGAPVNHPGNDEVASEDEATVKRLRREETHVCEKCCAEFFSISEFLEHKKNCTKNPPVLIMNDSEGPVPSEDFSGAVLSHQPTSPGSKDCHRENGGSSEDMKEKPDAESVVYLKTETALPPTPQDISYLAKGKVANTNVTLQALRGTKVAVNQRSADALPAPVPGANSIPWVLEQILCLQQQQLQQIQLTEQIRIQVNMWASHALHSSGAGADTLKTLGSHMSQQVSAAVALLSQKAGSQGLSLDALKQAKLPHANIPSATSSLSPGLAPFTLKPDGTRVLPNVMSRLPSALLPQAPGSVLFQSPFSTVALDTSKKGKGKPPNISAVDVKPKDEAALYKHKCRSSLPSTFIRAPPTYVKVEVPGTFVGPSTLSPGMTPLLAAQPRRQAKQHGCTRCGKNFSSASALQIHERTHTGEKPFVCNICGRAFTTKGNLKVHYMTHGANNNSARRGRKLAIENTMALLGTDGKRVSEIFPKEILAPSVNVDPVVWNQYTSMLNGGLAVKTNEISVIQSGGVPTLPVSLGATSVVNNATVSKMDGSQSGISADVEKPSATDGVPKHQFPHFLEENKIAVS
Strand,E-score
CTAGAGAC,-0.136
CGGCCCGC,-0.362
AAATGGAC,0.167
TACACCGA,-0.159
AGTTGGTA,0.179
GCCTAGCA,-0.0839
GCCACCAA,-0.0559
GATAAGCC,-0.144
TACGCCAA,0.0762
TATCTCGA,0.198
GTCTCACA,0.0351
ACAGAACC,0.0264
AGACGGCA,-0.157
ACCAACGA,-0.111
CCGGACGC,-0.316
CGCTTTCC,-0.22
AGCCCCCC,-0.399
CGTAAGTA,0.121
GTGTACGA,0.0593
CCTCTCTA,-0.173
AACCTAGA,0.0228
TGACCTAA,0.0829
AGTGCTAC,0.0168
ACTACAAA,0.203
GGTGTGAA,0.141

# Set 3 — method: competition protein-binding microarray; form: double-stranded DNA, one strand shown; matrix: in vitro; tested at: 2 µM; added: Cbf1 competitor, 0.05 µM; direction: higher = stronger binding; shared flanks, not repeated: … GTCTTGATTCGCTTGACGCTGCTG
# Target: Phosphate system positive regulatory protein PHO4, full length, GST-tagged (PHO4, Saccharomyces cerevisiae, UniProt P07270, residues 1-312)
# Setting: whole 60-bp probe, lowest competitor level
# Residues (chain): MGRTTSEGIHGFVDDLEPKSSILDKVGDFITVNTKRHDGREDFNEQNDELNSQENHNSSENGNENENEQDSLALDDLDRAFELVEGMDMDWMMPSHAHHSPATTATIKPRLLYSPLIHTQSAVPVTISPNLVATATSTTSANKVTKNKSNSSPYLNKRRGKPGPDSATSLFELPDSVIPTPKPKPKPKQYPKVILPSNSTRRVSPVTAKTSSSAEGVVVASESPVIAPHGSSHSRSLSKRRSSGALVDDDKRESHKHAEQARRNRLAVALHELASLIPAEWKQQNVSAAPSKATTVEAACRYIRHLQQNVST
Strand,fluorescence intensity [a.u.]
ATATAGTAAATAAAACACGTGATGGATTTGAAATGT,18900
CTTTCCCGATCTTGTGACGTGGGTGTAGCACATTTG,7050
ATCGATTCGAAATCGCACGTAGCTGGTCATACGGCC,6740
CCGGCTTCAATCGTCCCCGTGCCAGATAAACCAAAA,10900
CGGGGTTAAGTTTGATGTGTGGGTGGCTTGCAGCAG,5370
CGAAAACGGATGCCATGTTCCAGCACCAACTGCTAC,5090
AAAGCGGTAATTTGTGAGGTGGGTGCAGATATCTAT,4220
CGGGGTTAAGTTTGCCATGTGGGTGGCTTGCAGCAG,11100
TCCCAGTAGATATCGCACGCAAAACTCAAAAGATGG,6520
AGGTGCAGCCCCTGCCACGTGGGATGCGGTGTGCCC,17500
GGAAGCATTTTCCATCACGTTATTCGGGGACACCCA,6680
CCAAATTATGATTTGCACGTATATGATCGTCTTTAT,7130
CTTTCCCGATCTTGGACGGTGGGTGTAGCACATTTG,4180
GTACTGTTTCATTTAAACGTGTTTTCACTTGATCCA,10100
ATGGTTGTCTATGCTTCCGTGGGTATCACCAGATTA,4520
TGCGCAACAACTTGATCCGTGGGTGTATGTCTAGAA,6320
GAAAGCATCCGACGCCGCGTGGTCAATTTGTTCCTT,8920
AAATTACTAAGTTGACGTGTGGGTGACGCCGTATGA,5550
CATGAAACTCGCTGTCAGCTGAAATTTCACCTCAGT,2970
AACCTACAAAACACCGACGTGTTGAGCGTAAGAACC,6200

# Set 4 — method: DHFR PCA, deep sequencing; matrix: yeast; added: (+)-ABA 0.39 µM; reference: wild-type fitted maximum; direction: higher = stronger binding
# Target: ABI1, truncated, D143A, DHFR fusion (Arabidopsis thaliana)
# Setting: methotrexate growth selection, single substitutions
# Starting sequence: PYL1, truncated, DHFR fusion (Arabidopsis thaliana); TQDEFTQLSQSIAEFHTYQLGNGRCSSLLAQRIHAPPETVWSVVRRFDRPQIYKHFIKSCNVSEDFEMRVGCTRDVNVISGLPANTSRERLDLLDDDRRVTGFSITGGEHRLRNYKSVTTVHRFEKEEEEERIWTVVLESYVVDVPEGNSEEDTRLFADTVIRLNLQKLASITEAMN
Change,relative binding score [%]
V78T,24
V70Y,2.14
L28R,-0.607
R49C,38.3
E67K,35.1
E128M,31
P146R,2
P146S,8.35
T6L,47.8
C25H,5.59
T1W,38.1
R45Y,6.45
Q2N,41.3
H122V,-12.6
C60N,-8.64
R69V,51.3
A170F,-30.5
F103G,-12.4
R46C,20.1
F15A,-7.57
V40E,-5.97
R163G,21.9
P83R,11.6
D48Y,11.1

# Set 5 — method: protein-binding microarray; form: double-stranded DNA, one strand shown; matrix: in vitro; tested at: 2200 nM top; setting: 60-bp whole probe; added: salmon DNA 0.4 mg/ml; reference: random background probes; direction: higher = stronger binding; shared flanks, not repeated: GCCTAGCAC … GTCTTGATTCGCTTGACGCTGCTG
# Target: Interferon regulatory factor 7, full length, phosphomimetic (IRF7, Homo sapiens, UniProt Q92985, residues 1-503, S471D/S472D/S475D/S476D/S477D/S483D/S484D/S487D)
# Residues (chain): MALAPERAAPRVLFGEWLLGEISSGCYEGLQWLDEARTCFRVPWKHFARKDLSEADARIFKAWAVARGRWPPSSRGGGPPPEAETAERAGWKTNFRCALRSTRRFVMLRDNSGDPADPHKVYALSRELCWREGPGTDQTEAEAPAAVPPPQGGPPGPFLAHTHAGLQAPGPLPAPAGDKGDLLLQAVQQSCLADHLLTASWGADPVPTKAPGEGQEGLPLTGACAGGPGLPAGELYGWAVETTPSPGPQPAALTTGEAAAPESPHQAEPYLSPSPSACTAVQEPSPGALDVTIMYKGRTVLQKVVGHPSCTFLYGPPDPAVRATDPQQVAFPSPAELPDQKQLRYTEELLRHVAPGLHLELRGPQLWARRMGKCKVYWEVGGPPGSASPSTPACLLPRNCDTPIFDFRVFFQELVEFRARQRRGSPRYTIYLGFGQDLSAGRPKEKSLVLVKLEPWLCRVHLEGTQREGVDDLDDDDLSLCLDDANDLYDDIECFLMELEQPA
Strand,fitted relative affinity [z-score]
ACTAATTTTCATTTTCCAAAGTGCTAG,5.17
GACGGACTGGGTTTCGGGACGTGCTAG,1.02
GACCGTTTCGGTATCGGGACGTGCTAG,5.51
GACTGTTTCGGTTTCGGGACGTGCTAG,12.4
TTAGGTTTCCTGCTGCTTTAGTGCTAG,1.27
TTAGCTTTCGACTATCGGTTAGTGCTA,3.8
TTACGTATCGGTATCGGTTAGTGCTAG,2.19
TTAGGACTGGTCACTGGGTTAGTGCTA,-0.692
GACGGTATCCTTTTCCCGACGTGCTAG,1.43
GACGAACTGACTCTCGAGACGTGCTAG,0.146
TCATATATGAATATATAACTGTGCTAG,0.506
CCCTGAGGAATCCTGCAGCCGTGCTAG,-1.01
GACGGTATCGATTATCGGGACGTGCTA,0.361
CTTGATTTTGGTCTTTCTGTGTGCTAG,1.5
TCAACTAGGGAATTTAGAACTGTGCTA,-1
TTAGATTTCGGGACTGGATGAGTGCTA,0.854
GACGGACTGGACTTCCGGGACGTGCTA,-0.461
GACGGTCGCGGTTTCGGGACGTGCTAG,2.76
TTAGGTCTCGGTCCCGGTTAGTGCTAG,0.181
GTCGGTTTCGGGTTTCGGGACGTGCTA,11.4
GACGGTATCCTTACCCTGACGTGCTAG,0.649

# Set 6 — target: CCNE1, cyclin fold, Cln2 fusion (human); method: yeast growth competition, sequencing; matrix: yeast; setting: strong parent motif; reference: not given; direction: higher = stronger binding
# Starting sequence: CDKN1A docking peptide (human); SKACRRLFGPVDS; partner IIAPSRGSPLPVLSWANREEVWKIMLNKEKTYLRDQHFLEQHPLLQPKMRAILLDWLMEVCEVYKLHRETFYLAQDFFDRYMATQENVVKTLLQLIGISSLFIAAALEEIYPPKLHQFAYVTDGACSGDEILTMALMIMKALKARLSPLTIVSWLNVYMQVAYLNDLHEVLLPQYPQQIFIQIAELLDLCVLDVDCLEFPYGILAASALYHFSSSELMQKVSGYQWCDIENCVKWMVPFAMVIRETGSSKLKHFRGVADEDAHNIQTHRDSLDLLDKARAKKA
Change,normalised enrichment score
R6Q,5.33
K2M,5.02
V11T,6.14
F8D,0.225
P10V,4.65
F8M,0.333
R6F,1.97
R6K,4.8
K2G,6.23
L7A,-0.0877
D12G,4.6
V11N,5.67
K2S,5.68
G9E,5.94
C4F,0.704
C4W,0.944
S1A,4.93
V11F,5.73
F8R,-0.013
R6W,2
A3Q,0.209
G9Q,5.83
G9N,4.84
L7Y,0.623
C4R,5.86

# Excerpt of the above (set 2):
Strand,E-score
ACAGAACC,0.0264
AGACGGCA,-0.157
ACCAACGA,-0.111
CCGGACGC,-0.316
CGCTTTCC,-0.22
AGCCCCCC,-0.399
CGTAAGTA,0.121
GTGTACGA,0.0593
